Measured values pooled from the literature.
A part holds a random share of what one study measured.

Sample 1 — technique: RNA Bind-n-Seq; form: RNA; medium: in vitro; concentration: 200 nM; setting: whole 134-nt RNA, ends assumed; with: 150 mM LiCl; relative to: input library; reading: higher = stronger binding; all molecules: 7-deaza-guanosine replaces G
Target: Ras GTPase-activating protein-binding protein 1, full length (G3BP1, Homo sapiens, UniProt Q13283)
UniProt Q13283, sequence (whole entry, looked up): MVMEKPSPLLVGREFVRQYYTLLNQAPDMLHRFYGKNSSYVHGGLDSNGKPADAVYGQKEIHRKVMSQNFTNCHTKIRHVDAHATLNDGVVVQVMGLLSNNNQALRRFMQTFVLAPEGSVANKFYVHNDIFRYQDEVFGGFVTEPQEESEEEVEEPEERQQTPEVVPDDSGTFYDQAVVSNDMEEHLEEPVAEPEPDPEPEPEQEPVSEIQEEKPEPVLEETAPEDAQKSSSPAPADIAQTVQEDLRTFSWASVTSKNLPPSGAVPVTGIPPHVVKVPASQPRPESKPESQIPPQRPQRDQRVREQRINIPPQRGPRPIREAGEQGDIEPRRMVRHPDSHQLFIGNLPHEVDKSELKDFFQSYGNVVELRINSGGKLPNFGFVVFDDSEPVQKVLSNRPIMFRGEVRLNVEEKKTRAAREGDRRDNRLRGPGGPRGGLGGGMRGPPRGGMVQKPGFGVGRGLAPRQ
`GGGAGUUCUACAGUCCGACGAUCGCAGGAAGUAAAAACAAAUGGAAAUGCUUCGGAUAGUGGCAGGGGUGGGGGUUGCUAAGGAAAGGGUGGGAUGGGAGUGGGUAAAGAGUGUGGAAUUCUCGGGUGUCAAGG` has a log2 enrichment of -0.616.
`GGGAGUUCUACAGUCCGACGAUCUAACUUUAGAGGAGGAUCUGAUGGAUAUGGCAGUGGACGUGGAUUUGGGGAUGGCUAUAAUGGGUAUGGAGGAGGACGUGGAGGUGGCAAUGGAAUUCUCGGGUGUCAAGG` gave a log2 enrichment of 0.138.
`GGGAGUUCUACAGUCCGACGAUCGUCCUGUGCUACACAUCGUAUGUACCGAAUCGGGUUUUUUUGGGUUUUUUUGGGUGGGAAAGUAUUAUGUUACGCCGUUCGGAUCUGCACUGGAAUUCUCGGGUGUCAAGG` gave a log2 enrichment of -0.642.
`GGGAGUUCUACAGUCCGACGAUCGCAGGAAGUAAAAACAAAUGGAAAUGCUUCGGAUAGUGGCAGGGGUGGGGGUUGCUAAGGAAAGGGUGGGACGGGAGUGGGUAAAGAGUUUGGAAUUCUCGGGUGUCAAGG` has a log2 enrichment of 0.02.
The log2 enrichment of `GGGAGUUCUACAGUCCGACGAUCCUCAAGUCCUGUGCUACACAUCGUAUGUACCGAAUCGGGGUGGGGUGGGGUGGAAAGUAUUAUGUUACGCCGUUCGGAUCUGCACUUCCAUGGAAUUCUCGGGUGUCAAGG` is reported as -1.03.
For `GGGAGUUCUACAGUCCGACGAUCAGUCCUGUGCUACACAUCGUAUGUACCGAAUCAAAUUUAAAUUUUUUUAAAUUUAAAAAAGUAUUAUGUUACGCCGUUCGGAUCUGCACUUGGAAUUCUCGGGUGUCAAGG`, the log2 enrichment was -2.83.
For `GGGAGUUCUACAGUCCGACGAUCAAGUCCUGUGCUACACAUCGUAUGUACCGAAUCGGAAAAAAAGGAAAAAGGAAAGGAAAGUAUUAUGUUACGCCGUUCGGAUCUGCACUUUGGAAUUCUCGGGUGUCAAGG`, the log2 enrichment was -1.14.
With `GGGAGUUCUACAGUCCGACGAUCCUCAAGUCCUGUGCUACACAUCGUAUGUACCGAAUCGGUUUUUGGAGGUUUGGAAAGUAUUAUGUUACGCCGUUCGGAUCUGCACUUCCAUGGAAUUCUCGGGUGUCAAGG` the log2 enrichment was 0.0304.
For `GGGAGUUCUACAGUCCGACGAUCACCAUGCAGGUGGGCAUCUUUGGGAAGUGGGGCAAGGGGGGGAUAGGGAGGGGGGUAACACUUUGGGAACAGGUGGCCCCAGGUCGUUUCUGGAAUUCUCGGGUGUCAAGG`, the log2 enrichment was 0.224.
For `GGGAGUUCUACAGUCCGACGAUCGUCCUGUGCUACACAUCGUAUGUACCGAAUCGGGGAAAGGGGAAAAAGGGGAAAGGGGAAAGUAUUAUGUUACGCCGUUCGGAUCUGCACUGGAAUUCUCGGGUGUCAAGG`, the log2 enrichment was 0.473.
`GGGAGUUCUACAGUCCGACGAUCACCAUGCAGGUGGGCAUCUUUGGGAAGUGGGGCAAGGGGGGGAUAGGGAGGGGGGUAACACUUUGGGAACAGGUGGUCCCAGCUCGUUUCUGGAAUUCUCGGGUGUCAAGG` gave a log2 enrichment of 0.248.

Sample 2 — technique: protein binding microarray; form: double-stranded DNA, one strand shown; medium: in vitro; concentration: not given; relative to: not given; reading: higher = stronger binding
Target: Histone acetyltransferase KAT6A, both winged helices, GST fusion (KAT6A, Homo sapiens, UniProt Q92794, residues 1-181)
Setting: 8-mer, flanks averaged, mean of 2 arrays, mostly near background
Residues (chain): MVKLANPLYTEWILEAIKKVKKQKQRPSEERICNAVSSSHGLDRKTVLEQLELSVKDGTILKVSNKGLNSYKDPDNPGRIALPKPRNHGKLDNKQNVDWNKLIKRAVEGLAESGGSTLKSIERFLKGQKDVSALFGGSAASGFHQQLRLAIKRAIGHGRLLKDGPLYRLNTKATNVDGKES
`GCCCCTAC` gave an E-score of -0.0971.
The E-score of `GACAGTCC` is reported as 0.0122.
`CGTCGACG` gave an E-score of 0.206.
With `AGGGTTTG` the E-score was -0.153.
For `CATCATCG`, the E-score was -0.113.
`AAAAAACG` has an E-score of 0.18.
`ATATCATG` has an E-score of -0.0523.
`ATCCTAGC` gave an E-score of -0.181.
`CAGAGCAC` gave an E-score of -0.0763.
With `CATTCGGA` the E-score was 0.0738.
`CTTACGCC` has an E-score of 0.0777.
For `GGTCCGAA`, the E-score was 0.128.
`CACAATAC` gave an E-score of -0.0719.
For `CAGACGAA`, the E-score was -0.087.
With `AGGATAAG` the E-score was -0.05.
`ATATACGA` has an E-score of -0.129.
For `AATTATGT`, the E-score was 0.0632.
`CGGATGCC` has an E-score of 0.0682.
For `AAGGTTAT`, the E-score was -0.133.
With `ATACCGAC` the E-score was 0.0411.
With `ATTATGGG` the E-score was 0.00384.
The E-score of `AGTCGACT` is reported as 0.131.
The E-score of `GTCTTATA` is reported as -0.0204.
For `CCCTTAGG`, the E-score was -0.24.

Sample 3 — technique: universal PBM; form: double-stranded DNA, one strand shown; medium: in vitro; concentration: 600 nM; reading: higher = stronger binding
Target: Sal-like protein 4, full length isoform A (SALL4, Homo sapiens, UniProt Q9UJQ4, residues 1-1053)
UniProt Q9UJQ4, sequence (whole entry, looked up): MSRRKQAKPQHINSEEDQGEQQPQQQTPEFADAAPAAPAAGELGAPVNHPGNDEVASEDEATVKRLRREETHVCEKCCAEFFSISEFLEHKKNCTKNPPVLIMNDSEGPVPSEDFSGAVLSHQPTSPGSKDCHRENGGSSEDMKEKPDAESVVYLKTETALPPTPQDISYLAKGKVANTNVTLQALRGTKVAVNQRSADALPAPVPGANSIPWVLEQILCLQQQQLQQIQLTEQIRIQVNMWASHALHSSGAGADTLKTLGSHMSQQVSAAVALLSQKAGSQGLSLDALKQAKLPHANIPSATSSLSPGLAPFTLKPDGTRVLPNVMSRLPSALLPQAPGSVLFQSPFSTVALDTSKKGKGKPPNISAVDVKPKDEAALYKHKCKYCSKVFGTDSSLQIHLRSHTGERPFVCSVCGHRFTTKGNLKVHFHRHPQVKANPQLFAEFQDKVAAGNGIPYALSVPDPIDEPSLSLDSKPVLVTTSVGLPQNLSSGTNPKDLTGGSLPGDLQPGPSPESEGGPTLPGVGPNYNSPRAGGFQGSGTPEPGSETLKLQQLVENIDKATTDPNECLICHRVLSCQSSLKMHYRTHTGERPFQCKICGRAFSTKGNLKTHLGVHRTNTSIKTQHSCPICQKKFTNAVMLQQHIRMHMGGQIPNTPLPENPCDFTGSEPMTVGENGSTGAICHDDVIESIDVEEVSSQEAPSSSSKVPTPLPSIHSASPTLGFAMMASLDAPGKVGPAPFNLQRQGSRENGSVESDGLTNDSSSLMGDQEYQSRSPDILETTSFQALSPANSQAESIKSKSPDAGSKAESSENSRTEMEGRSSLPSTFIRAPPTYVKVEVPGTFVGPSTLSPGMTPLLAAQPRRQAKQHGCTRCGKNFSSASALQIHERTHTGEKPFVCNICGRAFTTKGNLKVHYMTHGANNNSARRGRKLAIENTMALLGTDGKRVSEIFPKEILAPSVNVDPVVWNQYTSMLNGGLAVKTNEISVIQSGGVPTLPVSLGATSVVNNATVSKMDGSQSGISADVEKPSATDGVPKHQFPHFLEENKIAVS
Setting: 8-mer, flanks averaged, mean of replicates
With `CGCAGCGC` the E-score was -0.221.
With `CCGATGTA` the E-score was -0.0736.
`AGGGCGAG` gave an E-score of -0.311.
The E-score of `CAGGATAA` is reported as 0.0647.
`CGTAACCA` gave an E-score of 0.0648.
`AGCACTGA` gave an E-score of 0.0333.
With `AATCCATG` the E-score was 0.124.
The E-score of `ACACGCGG` is reported as -0.182.
For `CACAGCTA`, the E-score was -0.0377.
`ACGTCATA` has an E-score of 0.317.
For `GGCATCAC`, the E-score was -0.299.
The E-score of `CTTTAATC` is reported as 0.156.
`CGGGTAAC` gave an E-score of -0.193.
`AGCTTGTC` has an E-score of -0.136.
For `CGAGCGTC`, the E-score was -0.231.
With `CTACGTCC` the E-score was -0.108.
With `CGGACGGA` the E-score was -0.328.
For `CGCCTATC`, the E-score was -0.0799.
`AACGAAGC` has an E-score of -0.198.
The E-score of `AAAAACGA` is reported as 0.268.
For `GGCGTGCA`, the E-score was -0.215.
For `AACCCGCC`, the E-score was -0.276.

Sample 4 — technique: RNA Bind-n-Seq; form: RNA; medium: in vitro; concentration: 365 nM; relative to: no-protein control; reading: higher = stronger binding
Target: RNA binding protein fox-1 homolog 2, RRM domain, GST-SBP tag (RBFOX2, Homo sapiens, UniProt O43251-10, residues 100-194)
Setting: natural RNA segment, single round, ends assumed
Target sequence (chain): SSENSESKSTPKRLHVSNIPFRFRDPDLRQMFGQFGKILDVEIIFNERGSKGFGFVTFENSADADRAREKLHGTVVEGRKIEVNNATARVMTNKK
For `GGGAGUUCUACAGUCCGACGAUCCAAGGUGAAGCAUAAAGAGUCAGCACCAGUGCUUACGUGGCCCCACUGCAUUGUCAGCACUGACCUUGCUUGGUCCUUUCCCUCCUGCUGUCCCUCAGUGCCUUCUCUCAUGGAAUUCUCGGGUGCCAA`, “RBNS enrichment (R)” read 0.376.
`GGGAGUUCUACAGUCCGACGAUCUUGGAACAGAGUUUUCUGAGAAAACAUUUUCAAGUUAAAGGAAAAUGCUAAGUCUGGCAUGGUAGUCAACACCUAUAAUCUCUGCACUCAGAGGCUGAGGAAGAAAGAUCUGGAAUUCUCGGGUGCCAA`: “RBNS enrichment (R)” 0.273.
`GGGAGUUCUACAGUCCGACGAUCGAAAUCAGGCCGUUUCCCUCCGCGUGCAUUGGUUUUGGUCUGUCUUUCAGUUCUGUUUCAAACUAGUGUAACACCACGCUGGCUCUAAUGUAUCUUUUCCACUUAUUGUUUGGAAUUCUCGGGUGCCAA` — result for “RBNS enrichment (R)”: 0.329.
Under “RBNS enrichment (R)”, `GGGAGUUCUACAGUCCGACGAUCUUGAUCAAACAAGUGUCUUUUACUUAAGAAGAAACUUGGUAAUCAUUGUGGCACCCACAGCAAGCAGUUGCCUUACCAGUGAAAAAGGUGCACUGAGGUAACAUCUAAAAUGGAAUUCUCGGGUGCCAA` is recorded as 0.891.
Under “RBNS enrichment (R)”, `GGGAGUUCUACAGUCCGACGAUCCUACUUUAUGUAAUGGGGUCGAAAUCUUUGAACACAUUAUUUAUAAAAACCUGUUUAAAAAUUCUAAGUCUUUUGACAUUUUUCUUAGAAUAGUAUCAAAAGAGAUUGGAUGGAAUUCUCGGGUGCCAA` is recorded as 0.423.
For `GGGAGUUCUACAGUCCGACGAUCAGACAGACCCACAGCCCUGCCCUUGUCUCUGAGGCUGAAGACCCCCUGACUCCCAUGCUGUGCUUGCCGCUCUGAAACAAACAGAGGCUGGAACUUUGUGGUCCUUGCCGUGGAAUUCUCGGGUGCCAA`, “RBNS enrichment (R)” read 0.35.
`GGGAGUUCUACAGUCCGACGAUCAGAAAAAAUGUCCCUUACAGGAACCGGCAGCAGCUAGGCAGUCACCGGCCCGCCUCCAUCCAAAAUCACGCUCGCGUGCUUCGGAAGCAUCCGGGUCACUCCUUCUCCGCUGGAAUUCUCGGGUGCCAA` — result for “RBNS enrichment (R)”: 0.265.
`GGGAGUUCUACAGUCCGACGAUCGACAGCUCUGCAUGUACUUGUGUUUUACGGCCUCAAGCAGAAUAAGGGACCUCCUCCUUAUUUCUGACUCAUAUCUAAGUAAGGUUCCCCAGGACAGCCACAGUUGUACUUGGAAUUCUCGGGUGCCAA` — result for “RBNS enrichment (R)”: 5.8.
For `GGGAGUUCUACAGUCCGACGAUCACUGACUGAUAGUAAAACUCAUGGAAGAACUCAAGAGAUGUCGAGACCAAAAGUCCCCAGUGACACCAACACAAAGCUCGCAGUUCCGUUUCCUUCUCGUUCCUAUUCUCUGGAAUUCUCGGGUGCCAA`, “RBNS enrichment (R)” read 0.542.
`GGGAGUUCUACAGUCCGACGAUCGAACAUCAAGAUACCUUUGCGUGGAUCAAGCUUGUGUACUUGACCGUUUUUAUAUUACUUUUGUAAAUAUUCUUGUCCACAUUCUACUUCAGCUUUGGAUGUGGUUACCGUGGAAUUCUCGGGUGCCAA`: “RBNS enrichment (R)” 0.424.
`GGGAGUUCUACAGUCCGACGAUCAGCUAAGAGAAAUCAGGGCAUGGAAAUUGAGUGUGUAAUAAAAAUUAAACUCUUCAUGUUAUAUAAUCAUGCAUAACUUCUAUCUUCAUUCUCUGAAGUUGCCUAGAGCAUGGAAUUCUCGGGUGCCAA` — result for “RBNS enrichment (R)”: 0.433.
`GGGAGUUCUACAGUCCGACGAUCUUGCCUCUUUCGUUUUACCUUCAUUUUUAGAUGAGGUAAAUGUUUUGUCUUUUACUUAAGGGUACUAAGCAAGGUCCACUCUAGUGUAGCUGAAGAGAAUGCAUAUUUGGUGGAAUUCUCGGGUGCCAA`: “RBNS enrichment (R)” 0.73.

Excerpt of the above (sample 3):
The E-score of `ACACGCGG` is reported as -0.182.
`ACGTCATA` has an E-score of 0.317.
For `CACAGCTA`, the E-score was -0.0377.
With `CCGATGTA` the E-score was -0.0736.
